Assay results collected from several papers.
Each numbered part is a random draw from the data of one study; scales do not carry over between parts. Several values in a cell are separate wells, animals, samples, runs or records. Numbers after ± are the reported error. ≈ marks a conversion by molar mass, not a printed value.
Sequence of UniProt Q05397 (whole entry, looked up): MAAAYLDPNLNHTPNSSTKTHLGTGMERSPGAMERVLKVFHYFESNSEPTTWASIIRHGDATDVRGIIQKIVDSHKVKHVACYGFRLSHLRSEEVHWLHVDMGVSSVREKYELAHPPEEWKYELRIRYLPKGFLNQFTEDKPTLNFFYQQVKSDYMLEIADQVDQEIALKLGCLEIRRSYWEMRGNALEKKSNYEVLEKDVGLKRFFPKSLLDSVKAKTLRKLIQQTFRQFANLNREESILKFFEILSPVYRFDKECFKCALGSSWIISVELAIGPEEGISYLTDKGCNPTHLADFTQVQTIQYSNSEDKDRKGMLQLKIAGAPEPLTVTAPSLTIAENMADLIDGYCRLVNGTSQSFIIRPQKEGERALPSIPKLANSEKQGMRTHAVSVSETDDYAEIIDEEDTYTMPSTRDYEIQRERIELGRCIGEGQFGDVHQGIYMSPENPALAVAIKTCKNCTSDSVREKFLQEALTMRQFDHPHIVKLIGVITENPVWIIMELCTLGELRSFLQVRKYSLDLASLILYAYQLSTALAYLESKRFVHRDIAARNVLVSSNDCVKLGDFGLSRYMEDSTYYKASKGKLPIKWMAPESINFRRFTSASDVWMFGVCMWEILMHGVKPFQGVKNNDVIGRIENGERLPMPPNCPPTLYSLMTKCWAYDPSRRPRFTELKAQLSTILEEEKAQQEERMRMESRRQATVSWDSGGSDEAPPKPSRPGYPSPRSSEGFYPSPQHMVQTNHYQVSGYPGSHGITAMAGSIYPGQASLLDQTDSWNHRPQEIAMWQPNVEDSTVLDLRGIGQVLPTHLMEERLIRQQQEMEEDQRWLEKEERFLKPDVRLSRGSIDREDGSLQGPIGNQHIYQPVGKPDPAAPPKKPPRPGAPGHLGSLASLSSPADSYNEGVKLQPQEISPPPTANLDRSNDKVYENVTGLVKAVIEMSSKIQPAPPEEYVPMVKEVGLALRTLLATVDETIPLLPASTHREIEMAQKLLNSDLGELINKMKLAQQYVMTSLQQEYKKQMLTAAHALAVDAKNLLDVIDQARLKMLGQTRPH
Sequence of UniProt P00519 (whole entry, unmodified, looked up): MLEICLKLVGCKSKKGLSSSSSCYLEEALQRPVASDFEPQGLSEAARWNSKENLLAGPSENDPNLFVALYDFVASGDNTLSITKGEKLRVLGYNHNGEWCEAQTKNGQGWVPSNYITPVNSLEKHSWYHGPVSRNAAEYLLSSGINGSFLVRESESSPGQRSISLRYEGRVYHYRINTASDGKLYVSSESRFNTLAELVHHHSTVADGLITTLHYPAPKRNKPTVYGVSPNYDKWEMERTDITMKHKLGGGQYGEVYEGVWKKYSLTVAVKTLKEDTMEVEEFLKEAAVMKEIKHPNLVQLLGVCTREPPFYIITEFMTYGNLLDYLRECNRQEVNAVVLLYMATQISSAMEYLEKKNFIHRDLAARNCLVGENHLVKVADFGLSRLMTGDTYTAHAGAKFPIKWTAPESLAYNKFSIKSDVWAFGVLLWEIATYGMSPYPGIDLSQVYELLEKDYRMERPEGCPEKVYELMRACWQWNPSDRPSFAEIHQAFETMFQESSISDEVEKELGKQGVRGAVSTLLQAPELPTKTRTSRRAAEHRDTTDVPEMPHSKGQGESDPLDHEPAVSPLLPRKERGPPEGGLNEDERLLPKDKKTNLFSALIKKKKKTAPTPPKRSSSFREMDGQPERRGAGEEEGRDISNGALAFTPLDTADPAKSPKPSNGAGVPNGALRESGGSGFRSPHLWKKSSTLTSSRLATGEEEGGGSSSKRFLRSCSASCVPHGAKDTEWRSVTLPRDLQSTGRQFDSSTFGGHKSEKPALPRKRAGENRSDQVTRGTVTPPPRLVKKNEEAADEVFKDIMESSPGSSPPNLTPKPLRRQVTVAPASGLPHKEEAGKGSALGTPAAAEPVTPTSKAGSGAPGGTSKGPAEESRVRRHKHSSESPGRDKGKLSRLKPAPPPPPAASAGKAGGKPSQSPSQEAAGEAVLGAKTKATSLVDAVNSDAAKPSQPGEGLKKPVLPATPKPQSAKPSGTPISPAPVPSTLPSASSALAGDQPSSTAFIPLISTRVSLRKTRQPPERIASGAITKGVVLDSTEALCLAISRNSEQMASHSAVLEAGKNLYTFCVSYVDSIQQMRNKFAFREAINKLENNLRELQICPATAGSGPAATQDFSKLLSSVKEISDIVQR
Sequence of UniProt P36896 (whole entry, looked up): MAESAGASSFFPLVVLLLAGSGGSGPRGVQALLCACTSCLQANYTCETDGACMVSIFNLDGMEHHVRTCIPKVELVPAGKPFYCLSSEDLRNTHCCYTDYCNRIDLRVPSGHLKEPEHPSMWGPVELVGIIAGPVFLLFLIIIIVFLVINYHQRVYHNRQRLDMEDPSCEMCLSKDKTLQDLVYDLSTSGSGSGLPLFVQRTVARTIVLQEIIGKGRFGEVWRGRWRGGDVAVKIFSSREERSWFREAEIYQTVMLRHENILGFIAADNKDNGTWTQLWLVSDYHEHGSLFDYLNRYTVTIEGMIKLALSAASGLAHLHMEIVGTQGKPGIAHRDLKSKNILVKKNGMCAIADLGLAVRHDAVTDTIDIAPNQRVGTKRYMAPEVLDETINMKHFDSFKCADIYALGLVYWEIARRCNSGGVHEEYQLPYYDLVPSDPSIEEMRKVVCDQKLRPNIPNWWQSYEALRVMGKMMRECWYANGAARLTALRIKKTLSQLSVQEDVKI

Set 1
Target: Sodium-dependent neutral amino acid transporter B(0)AT1 (SLC6A19, Homo sapiens, UniProt Q695T7)
Sequence of UniProt Q695T7 (whole entry, looked up): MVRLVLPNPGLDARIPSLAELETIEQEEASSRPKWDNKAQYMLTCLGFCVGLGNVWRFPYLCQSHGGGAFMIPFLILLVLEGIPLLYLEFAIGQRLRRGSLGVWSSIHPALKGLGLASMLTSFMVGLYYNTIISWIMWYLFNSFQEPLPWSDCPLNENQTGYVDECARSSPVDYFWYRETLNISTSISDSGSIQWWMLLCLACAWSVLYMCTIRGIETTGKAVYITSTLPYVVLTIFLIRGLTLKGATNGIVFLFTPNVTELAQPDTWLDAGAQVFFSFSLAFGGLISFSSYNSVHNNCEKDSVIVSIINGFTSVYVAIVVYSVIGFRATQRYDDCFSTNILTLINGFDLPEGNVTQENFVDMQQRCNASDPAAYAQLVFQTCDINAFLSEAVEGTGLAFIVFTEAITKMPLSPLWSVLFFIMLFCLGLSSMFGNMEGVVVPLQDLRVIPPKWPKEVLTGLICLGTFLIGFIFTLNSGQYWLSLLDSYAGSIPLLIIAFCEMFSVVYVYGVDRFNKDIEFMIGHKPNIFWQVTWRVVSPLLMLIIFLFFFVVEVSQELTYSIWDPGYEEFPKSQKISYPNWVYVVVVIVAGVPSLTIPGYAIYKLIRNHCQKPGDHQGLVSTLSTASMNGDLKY
Action: inhibitor
Method: L-[14C]leucine uptake
Cells: CHO-BC cells
Added: L-leucine 150 µM
Endpoint: IC50
Cc1cc(NCC(=O)NC(C)C)cc(C)c1I: 400 ± 100 nM
CCCNC(=O)COc1cc(C)c(Cl)c(C)c1: 4000 ± 1500 nM
Cc1cc(OCC(=O)NC(C)C)ccc1Br: 1000 ± 400 nM
CC(C)NC(=O)COc1cccc2ccccc12: 6000 ± 2000 nM

Set 2
SMILES: CN(C1COC1)C(C)(C)/C=C(\C#N)C(=O)N1CCC[C@H]1Cn1nc(-c2ccc(Oc3ccccc3)cc2F)c2c(N)ncnc21
Observed: kinase activity
Endpoint: inhibition
Ribosomal protein S6 kinase alpha-3 (RPS6KA3, Homo sapiens, UniProt P51812); 0.1 µM: -1%
Leukocyte tyrosine kinase receptor (LTK, Homo sapiens, UniProt P29376); 0.1 µM: 2%
Focal adhesion kinase 1 (PTK2, Homo sapiens, UniProt Q05397); 1 µM: 4%
Serine/threonine-protein kinase D1 (PRKD1, Homo sapiens, UniProt Q15139); 0.1 µM: 1%
MAP kinase-interacting serine/threonine-protein kinase 1 (MKNK1, Homo sapiens, UniProt Q9BUB5); 0.1 µM: 4%
Mitogen-activated protein kinase 14 (MAPK14, Homo sapiens, UniProt Q16539); 0.1 µM: 4%
Calcium/calmodulin-dependent protein kinase type 1D (CAMK1D, Homo sapiens, UniProt Q8IU85); 0.1 µM: 4%
Aurora kinase B (AURKB, Homo sapiens, UniProt Q96GD4); 0.1 µM: 5%
Ephrin type-A receptor 4 (EPHA4, Homo sapiens, UniProt P54764); 1 µM: -1%
Ephrin type-A receptor 2 (EPHA2, Homo sapiens, UniProt P29317); 0.1 µM: 2%
5'-AMP-activated protein kinase catalytic subunit alpha-1, with beta1, gamma1 (PRKAA1, Homo sapiens, UniProt Q13131); 0.1 µM: 5%

Set 3
Compound: Cc1ccc2c(c1)OC(O)(C(=O)O)C(=O)N2Cc1ccccc1 (centres unmarked)
Organism: Arabidopsis thaliana
Strain: Col-0
Endpoint: hypocotyl length
25 µg/mL, seed germination, repetition mean: 1.82 cm
3.125 µg/mL, seed germination, single repetition: 2.06 cm and 2.08 cm and 2.1 cm and 2.07 cm
50 µg/mL, seed germination, single repetition: 1.64 cm and 1.65 cm and 1.62 cm and 1.67 cm and 1.61 cm
12.5 µg/mL, seed germination, single repetition: 2.04 cm and 2.02 cm and 2.05 cm and 2.03 cm

Set 4
Sample: FeSSIF
Time: 24 h
pH: 5.0
Endpoint: kinetic solubility
Cc1ccc(O)c(C)c1-c1cnc2[nH]c(-c3cnc(N4CCC5(CC4)CC(CN4CCN(c6ccc(NC7CCC(=O)NC7=O)cc6F)CC4)C5)nc3)cc2c1C#N (centres unmarked): 182 µM (≈ 142 µg/mL)
Cc1ccc(O)c(C)c1-c1cnc2[nH]c(-c3cnc(N4CCC(CN5CCN(c6cc7c(cc6F)c(N6CCC(=O)NC6=O)nn7C)CC5)CC4)nc3)cc2c1C#N: 125 µM (≈ 97.9 µg/mL)
Cc1ccc(O)c(C)c1-c1cnc2[nH]c(-c3cnc(N4CCC(CN5CCC(c6ccc(NC7CCC(=O)NC7=O)cc6F)CC5)CC4)nc3)cc2c1C#N (centres unmarked): 144 µM (≈ 107 µg/mL)
Cc1ccc(O)c(C)c1-c1cnc2[nH]c(-c3cnc(N4CCC5(CC4)CC(N4CCN(c6ccc(NC7CCC(=O)NC7=O)cc6F)CC4)CO5)nc3)cc2c1C#N (centres unmarked): 156 µM (≈ 122 µg/mL)

Set 5
SMILES: C[C@@H]1CN(c2ccc(-c3cc(C(=O)NCCOCCOCCOCCOCCNC(=O)Cn4cc(-c5[nH]cc(C(=O)N[C@@H](CC(N)=O)c6ccc(F)c(Cl)c6)c5-c5ccc(Cl)cc5F)cn4)ccc3F)cc2NC(=O)c2c[nH]c(=O)cc2C(F)(F)F)C[C@H](C)N1C
Observed: thermal unfolding
Method: differential scanning fluorimetry
Concentration: 5.5 µM
Direction: higher = more unfolded
Endpoint: SYPRO Orange fluorescence
DCAF1: DDB1- and CUL4-associated factor 1 (DCAF1, Homo sapiens, UniProt Q9Y4B6)
Sequence of UniProt Q9Y4B6 (whole entry, looked up): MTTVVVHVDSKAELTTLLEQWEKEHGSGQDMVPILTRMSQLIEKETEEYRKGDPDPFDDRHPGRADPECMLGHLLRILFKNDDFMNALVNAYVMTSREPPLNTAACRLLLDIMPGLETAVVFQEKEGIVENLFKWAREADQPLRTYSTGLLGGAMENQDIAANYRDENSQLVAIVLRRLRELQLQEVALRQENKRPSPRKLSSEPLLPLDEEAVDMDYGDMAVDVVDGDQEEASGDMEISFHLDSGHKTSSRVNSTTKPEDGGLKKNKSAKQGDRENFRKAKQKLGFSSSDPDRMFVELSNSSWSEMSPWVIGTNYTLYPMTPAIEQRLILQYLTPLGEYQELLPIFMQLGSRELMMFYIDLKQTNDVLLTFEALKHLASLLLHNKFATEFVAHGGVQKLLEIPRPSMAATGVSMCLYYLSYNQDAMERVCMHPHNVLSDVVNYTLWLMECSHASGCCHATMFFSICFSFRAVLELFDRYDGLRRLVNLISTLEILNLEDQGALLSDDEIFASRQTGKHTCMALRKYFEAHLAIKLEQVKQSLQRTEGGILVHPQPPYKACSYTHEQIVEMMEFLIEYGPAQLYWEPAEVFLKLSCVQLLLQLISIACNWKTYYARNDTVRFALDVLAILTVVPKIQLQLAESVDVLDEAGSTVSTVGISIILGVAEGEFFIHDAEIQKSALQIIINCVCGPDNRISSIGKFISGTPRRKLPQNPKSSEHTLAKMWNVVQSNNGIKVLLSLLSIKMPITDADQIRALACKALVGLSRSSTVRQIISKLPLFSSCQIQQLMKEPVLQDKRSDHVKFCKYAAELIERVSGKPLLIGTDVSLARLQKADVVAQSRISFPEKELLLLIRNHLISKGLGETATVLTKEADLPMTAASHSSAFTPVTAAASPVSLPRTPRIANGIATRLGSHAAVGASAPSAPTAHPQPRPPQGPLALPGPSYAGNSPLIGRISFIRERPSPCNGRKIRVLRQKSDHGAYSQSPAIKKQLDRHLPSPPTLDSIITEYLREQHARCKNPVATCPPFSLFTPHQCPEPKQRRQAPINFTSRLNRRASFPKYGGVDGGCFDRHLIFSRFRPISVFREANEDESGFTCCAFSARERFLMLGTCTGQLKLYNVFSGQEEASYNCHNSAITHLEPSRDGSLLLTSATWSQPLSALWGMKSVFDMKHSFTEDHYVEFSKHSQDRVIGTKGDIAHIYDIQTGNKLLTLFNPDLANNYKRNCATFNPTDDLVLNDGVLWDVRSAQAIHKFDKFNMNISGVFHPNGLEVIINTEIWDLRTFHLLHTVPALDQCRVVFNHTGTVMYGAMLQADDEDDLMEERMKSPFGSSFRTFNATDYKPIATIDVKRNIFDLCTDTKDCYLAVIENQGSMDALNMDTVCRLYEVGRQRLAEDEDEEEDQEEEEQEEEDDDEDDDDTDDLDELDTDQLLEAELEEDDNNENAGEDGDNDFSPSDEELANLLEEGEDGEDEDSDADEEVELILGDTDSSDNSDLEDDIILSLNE
WDR5: WD repeat-containing protein 5 (WDR5, Homo sapiens, UniProt P61964)
DCAF1; 26.4 °C: 7650 a.u.
DCAF1; 83.41 °C: 41300 a.u.
DCAF1; 82.21 °C: 42400 a.u.
DCAF1; 67.41 °C: 56600 a.u.
WDR5; 90.01 °C: 43200 a.u.
WDR5; 65.61 °C: 7400 a.u.
DCAF1; 83.61 °C: 41100 a.u.

Set 6
Compound: CCC1(c2cccc(-c3cn(C)nc3C)c2)C2=C(Nc3n[nH]cc31)C(F)C(C)(C)CC2=O (single isomer, unassigned)
Concentration: 1 µM
Endpoint: remaining binding
Epidermal growth factor receptor (EGFR, Homo sapiens, UniProt P00533, G719C); binding, competition with immobilised ligand: 100%
Calcium/calmodulin-dependent protein kinase type 1B (PNCK, Homo sapiens, UniProt Q6P2M8); binding, competition with immobilised ligand: 88%
Ribosomal protein S6 kinase alpha-4, C-terminal kinase domain (RPS6KA4, Homo sapiens, UniProt O75676); kinase binding, KINOMEscan; baseline: DMSO control: 100%
Activin receptor type-1B (ACVR1B, Homo sapiens, UniProt P36896); kinase binding, KINOMEscan; baseline: DMSO control: 100%
Serine/threonine-protein kinase DCLK2 (DCLK2, Homo sapiens, UniProt Q8N568); kinase binding, KINOMEscan; baseline: DMSO control: 100%
FLT3 ITD/F691L, human; KINOMEscan: 100%
Tyrosine-protein kinase ABL1, non-phosphorylated (ABL1, Homo sapiens, UniProt P00519); binding, competition with immobilised ligand: 67%
Tyrosine-protein kinase JAK1, JH2 (JAK1, Homo sapiens, UniProt P23458); binding, competition with immobilised ligand: 95%
Macrophage colony-stimulating factor 1 receptor (CSF1R, Homo sapiens, UniProt P07333); kinase binding, KINOMEscan; baseline: DMSO control: 100%
Dual specificity mitogen-activated protein kinase kinase 4 (MAP2K4, Homo sapiens, UniProt P45985); kinase binding, KINOMEscan; baseline: DMSO control: 100%
Mitotic checkpoint serine/threonine-protein kinase BUB1 (BUB1, Homo sapiens, UniProt O43683); binding, competition with immobilised ligand: 100%
Serine/threonine-protein kinase D2 (PRKD2, Homo sapiens, UniProt Q9BZL6); binding, competition with immobilised ligand: 66%
Ephrin type-A receptor 7 (EPHA7, Homo sapiens, UniProt Q15375); binding, competition with immobilised ligand: 100%
Tyrosine-protein kinase ABL1, phosphorylated (ABL1, Homo sapiens, UniProt P00519, F317I); kinase binding, KINOMEscan; baseline: DMSO control: 88%

Set 7
SMILES: COCCCCCCC1CC2C(CCC3(C)C(O)CCC23)c2ccc(O)cc21 (centres unmarked)
Method: microarray
Baseline: untreated
Endpoint: log2 fold change
A549; refers to: ACTA2; 10 µM: 0.197
SK-OV-3; refers to: ACTA2; 10 µM: 0.0606
SK-OV-3; refers to: UBB; 10 µM: -0.662
SK-OV-3; refers to: CCL11; 50 µM: 0
PANC-1; refers to: ISG20L1; 10 µM: -0.0254
SK-OV-3; refers to: GZMK; 10 µM: 4.57
PANC-1; refers to: ISG20L1; 50 µM: 0.864
A549; refers to: UBB; 50 µM: -0.203
A549; refers to: CCL8; 50 µM: 4.6
PANC-1; refers to: GZMK; 50 µM: 3.38

Set 8
SMILES: CCN1CCN(Cc2ccc(COc3c(-c4c(C)c(F)cc5[nH]ncc45)c(C4CC4)cc4c(N5C[C@@H]6C[C@H]5CN6)nc(OC5CCOCC5)nc34)cc2)C(=O)C1
Observed: KRAS-RAF interaction
Action: inhibitor
Method: TR-FRET
Added: SOS-mediated nucleotide exchange
Endpoint: inhibition
KRAS with RAF: GTPase KRas, with RAF (KRAS, Homo sapiens, UniProt P01116)
KRAS G12D with RAF: GTPase KRas, with RAF (KRAS, Homo sapiens, UniProt P01116, G12D)
KRAS with RAF; 300 nM: 58.4%
KRAS G12D with RAF; 10 nM: -0.772% and 4.2%
KRAS with RAF; 3 µM: 101%
KRAS with RAF; 1 µM: 92.8% and 92.7%
KRAS G12D with RAF; 30 nM: 7.87% and 7.17%
KRAS G12D with RAF; 100 nM: 71.7% and 71.3%
KRAS with RAF; 10 µM: 104% and 102%

Mixed results
COc1cc(-c2nc3ccc(C(=O)NCCCN(C)C)cc3n2C2CCC2)cc(OC)c1OC
receptor occupancy (Focal adhesion kinase 1 (PTK2, Homo sapiens, UniProt Q05397); NanoBRET; 1 µM): -0.78%

A few entries again (set 6):
Tyrosine-protein kinase ABL1, non-phosphorylated (ABL1, Homo sapiens, UniProt P00519); binding, competition with immobilised ligand: 67%
Macrophage colony-stimulating factor 1 receptor (CSF1R, Homo sapiens, UniProt P07333); kinase binding, KINOMEscan; baseline: DMSO control: 100%
Serine/threonine-protein kinase D2 (PRKD2, Homo sapiens, UniProt Q9BZL6); binding, competition with immobilised ligand: 66%
Ephrin type-A receptor 7 (EPHA7, Homo sapiens, UniProt Q15375); binding, competition with immobilised ligand: 100%
Serine/threonine-protein kinase DCLK2 (DCLK2, Homo sapiens, UniProt Q8N568); kinase binding, KINOMEscan; baseline: DMSO control: 100%
Tyrosine-protein kinase ABL1, phosphorylated (ABL1, Homo sapiens, UniProt P00519, F317I); kinase binding, KINOMEscan; baseline: DMSO control: 88%
Mitotic checkpoint serine/threonine-protein kinase BUB1 (BUB1, Homo sapiens, UniProt O43683); binding, competition with immobilised ligand: 100%
Epidermal growth factor receptor (EGFR, Homo sapiens, UniProt P00533, G719C); binding, competition with immobilised ligand: 100%
Ribosomal protein S6 kinase alpha-4, C-terminal kinase domain (RPS6KA4, Homo sapiens, UniProt O75676); kinase binding, KINOMEscan; baseline: DMSO control: 100%
